# Published values from different studies.
# A part holds a random share of what one study measured. Values joined by “and” are separate records of one study, mostly repeats; a detail may differ.
# UniProt Q00532, sequence (whole entry, looked up): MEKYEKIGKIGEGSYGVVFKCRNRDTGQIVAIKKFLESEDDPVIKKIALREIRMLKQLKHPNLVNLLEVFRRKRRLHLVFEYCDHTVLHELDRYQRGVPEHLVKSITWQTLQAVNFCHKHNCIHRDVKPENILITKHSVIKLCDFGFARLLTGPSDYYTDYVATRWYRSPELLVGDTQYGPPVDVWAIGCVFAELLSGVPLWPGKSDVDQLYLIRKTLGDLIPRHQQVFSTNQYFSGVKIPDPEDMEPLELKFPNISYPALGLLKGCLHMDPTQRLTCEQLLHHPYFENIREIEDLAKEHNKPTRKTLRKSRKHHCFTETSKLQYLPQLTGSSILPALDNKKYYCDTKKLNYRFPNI
# UniProt Q16512, sequence (whole entry, looked up): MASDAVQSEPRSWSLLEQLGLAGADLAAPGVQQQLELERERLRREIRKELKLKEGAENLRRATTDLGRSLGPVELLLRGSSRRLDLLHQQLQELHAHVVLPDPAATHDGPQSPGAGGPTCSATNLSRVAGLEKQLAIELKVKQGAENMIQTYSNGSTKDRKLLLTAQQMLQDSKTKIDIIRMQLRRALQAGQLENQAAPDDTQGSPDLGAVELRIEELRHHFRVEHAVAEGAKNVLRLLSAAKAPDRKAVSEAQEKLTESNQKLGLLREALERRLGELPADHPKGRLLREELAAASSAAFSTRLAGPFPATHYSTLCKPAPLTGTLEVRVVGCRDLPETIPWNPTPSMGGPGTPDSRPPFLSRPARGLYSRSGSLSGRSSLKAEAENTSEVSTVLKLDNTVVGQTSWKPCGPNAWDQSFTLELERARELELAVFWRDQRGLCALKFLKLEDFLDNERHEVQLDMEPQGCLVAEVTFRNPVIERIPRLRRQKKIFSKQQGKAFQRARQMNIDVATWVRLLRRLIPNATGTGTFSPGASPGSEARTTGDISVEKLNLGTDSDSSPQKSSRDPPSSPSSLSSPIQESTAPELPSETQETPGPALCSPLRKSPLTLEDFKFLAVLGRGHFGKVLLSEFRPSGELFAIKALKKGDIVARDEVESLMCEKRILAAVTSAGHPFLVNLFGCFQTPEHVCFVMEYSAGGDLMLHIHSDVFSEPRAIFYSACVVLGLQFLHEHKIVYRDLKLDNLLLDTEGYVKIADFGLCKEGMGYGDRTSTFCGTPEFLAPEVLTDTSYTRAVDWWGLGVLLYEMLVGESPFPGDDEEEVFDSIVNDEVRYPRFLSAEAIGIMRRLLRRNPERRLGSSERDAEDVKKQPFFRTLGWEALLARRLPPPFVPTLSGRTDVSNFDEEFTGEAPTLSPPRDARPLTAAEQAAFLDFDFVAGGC

# Set 1
# Structure (SMILES): CC(=O)N[C@@H](Cc1c[nH]c2ccccc12)C(=O)N[C@@H](CCC(=O)C=[N+]=[N-])C(=O)OC(C)C
# Matrix: EL4 tumour
# Dose: dose not given
# Baseline: vehicle
measured,host,log2 fold change
phenyllactate,Mus musculus,-1.27
N6-carboxymethyllysine,"mouse, EL4 tumour-bearing",0.297
2'-O-methylcytidine,"mouse, EL4 tumour-bearing",-0.845
"N6,N6,N6-trimethyllysine",Mus musculus,-0.251

# Set 2
# SMILES: CC(C)n1cnc(-c2ccc(F)cc2)c1-c1ncc(C(=O)Nc2ccc(N3CCN(C)CC3)cc2)[nH]1
# Technique: phase 2a clinical trial
# Host: patients with idiopathic pulmonary fibrosis
dose,setting,with,patients with ALT increase [%]
30 mg once daily,,standard of care,0
60 mg once daily,,standard of care,9.1
60 mg once daily,without standard of care,,0

# Set 3
# Compound: O=C(Nc1cccnn1)N1CCC(=Cc2cccc(Oc3ccc(C(F)(F)F)cn3)c2)CC1
# Observed: cell-free assay
# Technique: competition with immobilised ligand
# Tested at: 1 µM
target,remaining binding
"Serine/threonine-protein kinase N1 (PKN1, Homo sapiens, UniProt Q16512)",100%
"Tyrosine-protein kinase ABL1, phosphorylated (ABL1, Homo sapiens, UniProt P00519, Q252H)",99%
"Epidermal growth factor receptor (EGFR, Homo sapiens, UniProt P00533, L861Q)",84%
"Cyclin-dependent kinase-like 1 (CDKL1, Homo sapiens, UniProt Q00532)",86%

# Set 4
# Cell line: A-375
# Tested at: 100 µM
# Time: 18 h
Structure (SMILES),viability [%]
Cc1ccc(O)cc1,87.3
NC(=O)c1cnccn1,98
C=C1CC[C@@H]2[C@](C)(CO)[C@H](O)CC[C@@]2(C)[C@@H]1C/C=C1/C(=O)OC[C@H]1O,77
CC[C@@H]([C@H](C)O)n1ncn(-c2ccc(N3CCN(c4ccc(OC[C@@H]5CO[C@@](Cn6cncn6)(c6ccc(F)cc6F)C5)cc4)CC3)cc2)c1=O,63.9
CCOC(=O)C1=C[C@@H](OC(CC)CC)[C@H](NC(C)=O)[C@@H](N)C1,101
C[C@H](O)C(=O)Nc1c(I)c(C(=O)NC(CO)CO)c(I)c(C(=O)NC(CO)CO)c1I,89.5

# Set 5
# Target: NUAK family SNF1-like kinase 1 (NUAK1, Homo sapiens, UniProt O60285)
# Observed: enzyme activity
# Action: inhibitor
# Tested at: 0.5 µM
# Baseline: control
# Target sequence (O60285 1-661): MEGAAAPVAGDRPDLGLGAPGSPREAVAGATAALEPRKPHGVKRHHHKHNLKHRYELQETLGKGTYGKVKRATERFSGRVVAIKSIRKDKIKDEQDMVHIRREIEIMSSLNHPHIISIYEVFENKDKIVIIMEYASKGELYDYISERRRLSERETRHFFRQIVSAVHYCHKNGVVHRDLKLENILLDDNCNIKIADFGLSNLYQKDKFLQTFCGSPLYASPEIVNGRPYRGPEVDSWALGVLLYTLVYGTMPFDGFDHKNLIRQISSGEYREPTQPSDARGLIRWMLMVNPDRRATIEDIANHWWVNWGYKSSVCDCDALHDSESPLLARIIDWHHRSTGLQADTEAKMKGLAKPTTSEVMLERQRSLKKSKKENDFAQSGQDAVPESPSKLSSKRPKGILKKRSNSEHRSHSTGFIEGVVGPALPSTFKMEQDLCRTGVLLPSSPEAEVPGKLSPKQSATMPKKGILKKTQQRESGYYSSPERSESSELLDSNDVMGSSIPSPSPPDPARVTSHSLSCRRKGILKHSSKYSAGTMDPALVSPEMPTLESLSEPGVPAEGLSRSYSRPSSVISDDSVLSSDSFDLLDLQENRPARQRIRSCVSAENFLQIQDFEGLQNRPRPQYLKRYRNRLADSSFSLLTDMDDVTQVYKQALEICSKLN
Structure (SMILES),remaining activity [%]
COc1cc2ncnc(Nc3ccc(F)c(Cl)c3)c2cc1OCCCN1CCOCC1,99.1
COc1ccc(C(=O)Nc2sc3c(c2C(N)=O)CCCC3)cc1OC,81.8
O=C1NC(=O)C(c2cn(CCCO)c3ncccc23)=C1c1cnccn1,59.4
Cc1nc(-c2ccccc2)c(-c2ccncc2)o1,100
CCOC(=O)c1c(C)[nH]c(/C=C2\C(=O)Nc3ccccc32)c1C,62.3
OCC(O)CCON=C1C(c2c(O)[nH]c3ccccc23)=Nc2ccccc21 (stereo not shown),2.81
CC(C)[C@H](CO)Nc1nc(Nc2cc(N)cc(Cl)c2)c2ncn(C(C)C)c2n1,61.5
O=C(CCCc1ccc(-c2ccccc2F)cc1)Nc1ccc(O)cc1,96.4
O=C1NC(=O)C(c2cn(CCCn3ccnc3)c3ccccc23)=C1Nc1ccccc1,70.6
Cc1cccc(-c2[nH]c(C(C)(C)C)nc2-c2ccc3c(c2)OCO3)n1,97.3
Cc1ccc(NC(=O)c2ccc(CN3CCN(C)CC3)cc2)cc1Nc1nc(-c2cccnc2)cs1,110
Cn1sc(=O)n(Cc2ccccc2)c1=O,102
O=C(O)c1ccc2c3c1cccc3c(=O)n1c3ccccc3nc21,41.3
Cc1ccc(Nc2nccc(N(C)c3ccc4c(C)n(C)nc4c3)n2)cc1S(N)(=O)=O,53.4
Nc1ncnc2n[nH]c(Nc3ccc(F)cc3)c12,95.5
Nc1[nH]nc2nc3ccccc3nc12,86.3

# Single results of other studies
SMILES,technique,host,matrix,route,dose,endpoint,value
COc1ccc(-c2c(Nc3ccccn3)[nH]c3c(C4=CCCCC4)c(-c4ccccc4)nn3c2=O)cc1,LC-MS/MS,human,plasma,oral,50 mg once daily,AUMC(0-tau),408000 h²·ng/mL and 372000 h²·ng/mL and 382000 h²·ng/mL

# Some of these lines once more (set 5):
Structure (SMILES),remaining activity [%]
Cc1nc(-c2ccccc2)c(-c2ccncc2)o1,100
Cc1ccc(Nc2nccc(N(C)c3ccc4c(C)n(C)nc4c3)n2)cc1S(N)(=O)=O,53.4
Cc1cccc(-c2[nH]c(C(C)(C)C)nc2-c2ccc3c(c2)OCO3)n1,97.3
Nc1[nH]nc2nc3ccccc3nc12,86.3
O=C1NC(=O)C(c2cn(CCCO)c3ncccc23)=C1c1cnccn1,59.4
CCOC(=O)c1c(C)[nH]c(/C=C2\C(=O)Nc3ccccc32)c1C,62.3
